Assay results pooled from the literature.
Each numbered part is a random draw from the data of one study; scales do not carry over between parts.

Block 1 — method: RNAcompete; molecule type: RNA; medium: in vitro; tested at: 20 nM; setting: 7-mer, probes averaged, single round; baseline: mean of 7-mers; reading: higher = stronger binding; quantity: 7-mer Z-score
Target: PABPC1L2, full length, GST fusion (mouse, UniProt A0ABA7IW68)
Target sequence (chain): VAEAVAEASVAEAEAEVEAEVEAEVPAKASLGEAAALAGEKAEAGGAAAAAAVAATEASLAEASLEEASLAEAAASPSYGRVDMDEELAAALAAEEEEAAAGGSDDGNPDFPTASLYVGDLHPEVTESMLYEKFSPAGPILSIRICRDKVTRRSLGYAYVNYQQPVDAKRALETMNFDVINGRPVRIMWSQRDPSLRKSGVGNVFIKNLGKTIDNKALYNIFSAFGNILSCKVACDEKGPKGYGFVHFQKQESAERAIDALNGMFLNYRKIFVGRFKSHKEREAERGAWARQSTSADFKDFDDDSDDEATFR
Sequence = ACCCCGG; result = -0.315
Sequence = CAUUGCG; result = -0.0283
Sequence = AGUCUAA; result = -0.135
Sequence = UUUGCAC; result = -0.345

Block 2 — method: protein-binding microarray; molecule type: double-stranded DNA, one strand shown; medium: in vitro; tested at: 250 nM; setting: 60-bp whole probe; together with: salmon DNA 0.4 mg/ml; baseline: random background probes; reading: higher = stronger binding; quantity: log fluorescence
Target: Interferon regulatory factor 7, full length, phosphomimetic (IRF7, Homo sapiens, UniProt Q92985, residues 1-503, S101K/S471D/S472D/S475D/S476D/S477D/S483D/S484D/S487D)
Construct (chain): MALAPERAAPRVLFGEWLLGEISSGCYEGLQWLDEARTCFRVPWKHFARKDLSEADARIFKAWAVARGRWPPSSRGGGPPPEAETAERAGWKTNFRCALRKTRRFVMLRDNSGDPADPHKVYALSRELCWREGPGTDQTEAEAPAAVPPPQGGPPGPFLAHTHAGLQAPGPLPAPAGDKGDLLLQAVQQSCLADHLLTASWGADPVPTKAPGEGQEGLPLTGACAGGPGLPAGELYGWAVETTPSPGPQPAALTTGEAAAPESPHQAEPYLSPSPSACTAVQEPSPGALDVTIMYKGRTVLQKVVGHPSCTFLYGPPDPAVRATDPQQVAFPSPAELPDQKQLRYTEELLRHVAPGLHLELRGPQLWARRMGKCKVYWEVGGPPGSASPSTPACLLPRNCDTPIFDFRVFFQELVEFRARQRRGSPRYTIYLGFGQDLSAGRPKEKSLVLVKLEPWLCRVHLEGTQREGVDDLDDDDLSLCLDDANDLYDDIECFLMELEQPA
Sequence = GCCTAGCACTTAGTTTTCAGTTCCGATTAGTGCTAGGTCTTGATTCGCTTGACGCTGCTG; result = 4.01 z-score
Sequence = GCCTAGCACTTAGGTATCGGGTATCGGTCAGTGCTAGTCTTGATTCGCTTGACGCTGCTG; result = 0.705 z-score
Sequence = GCCTAGCACTTAGGTATCGGGACTGGGTTAGTGCTAGTCTTGATTCGCTTGACGCTGCTG; result = -0.138 z-score
Sequence = GCCTAGCACTTAGGAATCGGACTGGGTTAGTGCTAGGTCTTGATTCGCTTGACGCTGCTG; result = -0.0958 z-score

Block 3 — method: RNA Bind-n-Seq; molecule type: RNA; medium: in vitro; tested at: 200 nM; setting: whole 134-nt RNA, ends assumed; together with: 150 mM KCl; baseline: input library; reading: higher = stronger binding; quantity: log2 enrichment
Target: Ras GTPase-activating protein-binding protein 1, full length (G3BP1, Homo sapiens, UniProt Q13283)
UniProt Q13283, sequence (whole entry, looked up): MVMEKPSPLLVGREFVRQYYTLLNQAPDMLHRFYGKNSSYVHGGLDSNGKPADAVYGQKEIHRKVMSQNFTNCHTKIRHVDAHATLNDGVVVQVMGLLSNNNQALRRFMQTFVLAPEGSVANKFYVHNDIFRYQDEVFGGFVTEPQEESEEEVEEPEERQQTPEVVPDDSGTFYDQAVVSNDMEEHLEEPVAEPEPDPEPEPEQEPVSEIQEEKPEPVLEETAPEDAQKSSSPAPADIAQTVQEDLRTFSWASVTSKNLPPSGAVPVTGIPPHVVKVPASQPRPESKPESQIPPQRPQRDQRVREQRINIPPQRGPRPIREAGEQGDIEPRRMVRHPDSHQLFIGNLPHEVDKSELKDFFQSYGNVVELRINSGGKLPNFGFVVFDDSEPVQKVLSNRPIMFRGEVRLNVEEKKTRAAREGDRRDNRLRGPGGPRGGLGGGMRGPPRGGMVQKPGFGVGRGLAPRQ
Sequence = GGGAGUUCUACAGUCCGACGAUCUCCUGUGCUACACAUCGUAUGUACCGAAUCGGGAAAAAAGGGAAAAAAGGAAAAAAGGGAAAGUAUUAUGUUACGCCGUUCGGAUCUGCAUGGAAUUCUCGGGUGUCAAGG; result = -0.454
Sequence = GGGAGUUCUACAGUCCGACGAUCCAAGUCCUGUGCUACACAUCGUAUGUACCGAAUCGGGGUGGGGAGGGGAAAGGGGAAAGUAUUAUGUUACGCCGUUCGGAUCUGCACUUCUGGAAUUCUCGGGUGUCAAGG; result = 1.39
Sequence = GGGAGUUCUACAGUCCGACGAUCCUCAAGUCCUGUGCUACACAUCGUAUGUACCGAAUCGGGUUGGUUGGUUGGGGAAAGUAUUAUGUUACGCCGUUCGGAUCUGCACUUCCAUGGAAUUCUCGGGUGUCAAGG; result = -0.0542

Further values, each from its own experiment
Molecule = PhoQ, residues 284 288 289 292 302 303 ASSHFY; target = PhoP, residues 12 14 15 18 19 IFFTR (Escherichia coli, UniProt P23836); assay = Sort-seq, measured: YFP reporter; test system = E. coli; conditions = PhoQ-PhoP variant library, together with: 10 µM Mg2+; how to read = baseline: high Mg2+ state, higher = stronger signaling; quantity = fold induction; result = 9.31
